Results collected from several papers.
Each line is one published result; not all experiments were run side by side. Several values in a cell are separate wells, animals, samples, runs or records. ± gives the spread as reported.
GLP1R: Glucagon-like peptide 1 receptor (GLP1R, Homo sapiens, UniProt P43220)
Sequence of UniProt O43603 (whole entry, looked up): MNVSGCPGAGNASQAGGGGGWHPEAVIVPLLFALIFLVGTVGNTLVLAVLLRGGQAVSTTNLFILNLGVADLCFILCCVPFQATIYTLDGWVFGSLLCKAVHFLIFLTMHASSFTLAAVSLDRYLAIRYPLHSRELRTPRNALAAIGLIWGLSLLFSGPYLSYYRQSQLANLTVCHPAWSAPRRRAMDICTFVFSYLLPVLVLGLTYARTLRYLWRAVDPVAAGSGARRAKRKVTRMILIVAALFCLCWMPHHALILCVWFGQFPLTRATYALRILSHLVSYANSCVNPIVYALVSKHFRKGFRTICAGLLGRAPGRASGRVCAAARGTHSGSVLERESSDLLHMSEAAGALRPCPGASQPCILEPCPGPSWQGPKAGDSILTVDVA
Sequence of UniProt Q8NFN8 (whole entry, looked up): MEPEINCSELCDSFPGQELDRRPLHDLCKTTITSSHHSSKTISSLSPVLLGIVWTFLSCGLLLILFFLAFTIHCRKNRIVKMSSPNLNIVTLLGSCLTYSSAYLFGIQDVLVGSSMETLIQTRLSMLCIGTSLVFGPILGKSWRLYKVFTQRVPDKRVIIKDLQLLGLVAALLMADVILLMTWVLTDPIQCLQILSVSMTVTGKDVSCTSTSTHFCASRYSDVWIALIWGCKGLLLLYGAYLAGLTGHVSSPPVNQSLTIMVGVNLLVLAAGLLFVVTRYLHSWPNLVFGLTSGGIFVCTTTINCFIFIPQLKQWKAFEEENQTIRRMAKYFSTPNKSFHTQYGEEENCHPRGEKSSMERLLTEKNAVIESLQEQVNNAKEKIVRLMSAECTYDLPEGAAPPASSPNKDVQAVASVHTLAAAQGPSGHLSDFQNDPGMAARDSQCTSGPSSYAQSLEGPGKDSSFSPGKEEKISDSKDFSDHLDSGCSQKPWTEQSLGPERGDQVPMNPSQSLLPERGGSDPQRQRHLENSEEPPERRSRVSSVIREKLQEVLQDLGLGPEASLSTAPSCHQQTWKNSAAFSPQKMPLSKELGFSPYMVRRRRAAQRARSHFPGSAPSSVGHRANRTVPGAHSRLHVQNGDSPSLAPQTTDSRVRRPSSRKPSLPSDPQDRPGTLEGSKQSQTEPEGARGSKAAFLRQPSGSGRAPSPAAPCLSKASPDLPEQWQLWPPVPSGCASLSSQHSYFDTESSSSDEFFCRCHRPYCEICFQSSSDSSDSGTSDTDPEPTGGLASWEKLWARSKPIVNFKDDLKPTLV
Sequence of UniProt O00506 (whole entry, looked up): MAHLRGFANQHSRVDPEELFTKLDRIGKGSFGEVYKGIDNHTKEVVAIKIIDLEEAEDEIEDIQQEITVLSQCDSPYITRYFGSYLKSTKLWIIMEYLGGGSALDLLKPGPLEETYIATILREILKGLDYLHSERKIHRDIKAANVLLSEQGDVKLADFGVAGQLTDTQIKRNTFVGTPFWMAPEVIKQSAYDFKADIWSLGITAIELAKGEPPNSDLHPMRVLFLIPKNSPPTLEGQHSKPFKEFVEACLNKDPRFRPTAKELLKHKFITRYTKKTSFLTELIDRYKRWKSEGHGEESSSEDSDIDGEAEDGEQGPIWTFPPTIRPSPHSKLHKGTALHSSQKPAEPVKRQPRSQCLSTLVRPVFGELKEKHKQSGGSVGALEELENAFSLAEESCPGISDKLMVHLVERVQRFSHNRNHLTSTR
Sequence of UniProt P42785 (whole entry, looked up): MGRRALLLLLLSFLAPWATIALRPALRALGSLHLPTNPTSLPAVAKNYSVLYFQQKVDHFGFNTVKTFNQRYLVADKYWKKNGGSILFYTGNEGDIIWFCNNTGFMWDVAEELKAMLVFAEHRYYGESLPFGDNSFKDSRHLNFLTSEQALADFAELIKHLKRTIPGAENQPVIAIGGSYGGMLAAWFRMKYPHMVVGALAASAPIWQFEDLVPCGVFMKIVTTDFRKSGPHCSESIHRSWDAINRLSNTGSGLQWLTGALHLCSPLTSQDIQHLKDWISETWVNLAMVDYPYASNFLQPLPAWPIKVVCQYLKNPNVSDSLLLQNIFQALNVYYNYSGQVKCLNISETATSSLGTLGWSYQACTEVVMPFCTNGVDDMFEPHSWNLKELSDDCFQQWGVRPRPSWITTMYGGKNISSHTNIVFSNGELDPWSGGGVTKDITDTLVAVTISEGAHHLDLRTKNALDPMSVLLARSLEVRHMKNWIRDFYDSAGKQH
Sequence of UniProt P04629 (whole entry, looked up): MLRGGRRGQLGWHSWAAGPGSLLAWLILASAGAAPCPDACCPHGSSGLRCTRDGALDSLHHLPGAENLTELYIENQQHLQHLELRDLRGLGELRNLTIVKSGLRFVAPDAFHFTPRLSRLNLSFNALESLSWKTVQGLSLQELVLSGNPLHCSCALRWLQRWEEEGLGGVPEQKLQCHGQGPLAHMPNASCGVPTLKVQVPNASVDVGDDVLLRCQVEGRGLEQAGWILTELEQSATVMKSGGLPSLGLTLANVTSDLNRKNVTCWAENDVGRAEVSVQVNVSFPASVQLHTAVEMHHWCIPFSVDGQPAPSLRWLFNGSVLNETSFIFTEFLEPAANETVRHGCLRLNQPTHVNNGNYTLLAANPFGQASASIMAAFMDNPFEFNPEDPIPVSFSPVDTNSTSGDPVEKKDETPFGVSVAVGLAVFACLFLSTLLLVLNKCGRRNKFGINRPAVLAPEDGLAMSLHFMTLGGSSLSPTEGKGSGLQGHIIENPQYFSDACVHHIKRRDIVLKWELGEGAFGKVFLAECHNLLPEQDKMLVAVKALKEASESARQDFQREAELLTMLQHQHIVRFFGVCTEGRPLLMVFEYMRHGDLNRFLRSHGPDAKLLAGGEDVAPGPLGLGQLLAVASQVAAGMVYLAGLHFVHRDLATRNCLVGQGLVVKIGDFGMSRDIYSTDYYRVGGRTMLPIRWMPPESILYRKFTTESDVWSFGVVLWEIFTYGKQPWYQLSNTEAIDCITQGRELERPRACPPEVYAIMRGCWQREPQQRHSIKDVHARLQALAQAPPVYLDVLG

O=c1cc(-c2ccccc2)oc2c(O)c(O)ccc12 — neurite length (SH-SY5Y Aβ-GFP cells, TRKB shRNA; 5 µM): 27.4 to 31.1 µm
COc1c(C)c2c(c(O)c1C/C=C(\C)CCC(=O)O)C(=O)OC2 — IC50 (Panc1005; cell proliferation; pancreas cancer): 724 nM
COc1cc(CCC[P+](c2ccccc2)(c2ccccc2)c2ccccc2)c(OC)c2c1OCO2.[I-] — LC50 (HT-29; SRB): > -4 log M
Oc1ccc(C2(c3ccc(O)cc3)c3ccccc3-c3ccccc32)cc1 — G1 phase cells (HepG2 spheroids; Hoechst flow cytometry; 0.01 µM, 96 h): 77.1 ± 3.96%
C[C@H]1CN(c2n[nH]c3nc(N[C@H]4CC[C@H](NS(=O)(=O)CCC(F)(F)F)CC4)ncc23)CCO1 — relative abundance (NTRK1 (Homo sapiens, UniProt P04629); inhibitor, Kinobeads competition profiling; 0.8 µM; reference: vehicle): 1.06
C[C@@H](O)[C@@H](CO)NC(=O)[C@@H](CCCNC(=N)N)NC(=O)[C@@H]1CCCN1C(=O)[C@@H]1CSSC[C@H](NC(=O)[C@H](Cc2ccccc2)NC(=O)CN2CCN(CC(=O)O)CCN(CC(=O)O)CCN(CC(=O)O)CC2)C(=O)N[C@@H](Cc2ccc(O)cc2)C(=O)N[C@@H](Cc2ccccc2)C(=O)N[C@@H](CCC(N)=O)C(=O)N[C@@H](CC(N)=O)C(=O)N1 [gallium-68 labelled] — radiochemical purity (human serum; 3 h, 37 °C): > 99%
Cc1nn(-c2nc3c(F)cc(F)cc3s2)c(O)c1C(c1ccc(C(F)(F)F)cc1)c1c(C)nn(-c2nc3c(F)cc(F)cc3s2)c1O — viability (RAW-ISG; CCK-8; 50 µM): 61.8% and 41.3% and 78.5% and 63.5%
COc1cc(C(=O)NC2CCN(C)CC2)c(F)cc1Nc1ncc2c(n1)N(C1CCCC1)CC(F)(F)C(=O)N2C — fold change in IC50 (HD-MB03; with: ribociclib 5 µM; reference: ribociclib over DMSO): 1.58
CN1CCN(C2(CNC3CCN(c4cccc(-c5cc6cc(F)ccc6[nH]5)c4)CC3)CCC2)CC1 — GI50 (SF-268): 1590 nM
CNC(=O)Oc1cc(C)c(SC)c(C)c1 — specificity ratio (SH-SY5Y; neurite outgrowth; nominal concentration; reference: IC10 over EC10): 8.83
O=C(c1ccc(Cl)cc1)N1CCN2C(=O)N(OC(=O)N3CCOc4ccccc43)C(=O)C2C1 (stereo not shown) — mean protein ratio (PRCP (Homo sapiens, UniProt P42785); MS-based ABPP; SW-620 conditioned medium; 10 µM, 1 h, 37 °C; reference: treated over control): 1.16
O=C1CCP(=S)(c2ccccc2)CC1 — selectivity index (SW480; MTT; 72 h; reference: IC50 HaCaT over IC50 SW480): 2.8
Nc1ncnc2c1ncn2[C@@H]1O[C@@H]2COP(=O)(O)O[C@H]3[C@@H](O)[C@H](n4cnc5c(=O)[nH]cnc54)O[C@@H]3COP(=O)(O)O[C@H]2[C@H]1O — fold enrichment (HFF-1; RNA sequencing, item: Reactome DDX58/IFIH1 negative regulators; upregulated pathways; reference: mock): 13.4
COc1cc(N)c(Cl)cc1C(=O)NC1CN2CCC1CC2 (stereo not shown) — log2 fold change (Probable G-protein coupled receptor 156 (GPR156, Homo sapiens, UniProt Q8NFN8); β-arrestin recruitment, TANGO luminescence, item: GPR156; concentration not given; reference: basal luminescence): 0.013
COc1ccc(N2C(=O)N(c3c(C)cccc3Cl)Cc3cnc(Nc4ccc(C5CCN(C)CC5)cc4OC)nc32)nc1 — inhibition (STK25 (Homo sapiens, UniProt O00506); kinase activity; 0.5 µM): 15%
O=c1c(O)c(-c2ccc(O)c(O)c2)oc2cc(O)cc(O)c12 — neurite process number (SH-SY5Y Aβ-GFP cells, TRKB shRNA; 5 µM): 3.3
Cc1cc(C(C)(C)c2ccc(O)c(C)c2)ccc1O — spheroid area increase (HepG2 spheroids; planimetry; 10 µM, 0 to 24 h; reference: mean area of 72 h spheroids): 126%
COc1ccc2c(c1)[nH]c1c(C)nccc12 — methylation reduction (DU-145; bisulfite pyrosequencing, item: RASSF1A promoter CpG site 6; concentration not given; reference: vehicle): 0.05%
CC(C)N1CCC(NC2CCN(c3cccc(-c4cc5cc(F)ccc5[nH]4)c3)CC2)CC1 — CC50 (HT-29): > 100000 nM
C/C=C(/C)C(=O)O[C@H]1C(C)=C2[C@H]([C@@H]1OC(=O)CCCCCCC)[C@@](C)(OC(C)=O)C[C@H](OC(=O)CCC)[C@@]1(O)[C@H]2OC(=O)[C@@]1(C)O — normalized enrichment score (HEK-293T; RNA-seq GSEA, item: Hallmark MYC targets V1; 500 nM, 6 h; direction not given): 0.91
CC[C@H](C)[C@H](NC(=O)[C@H](Cc1ccccc1)NC(=O)[C@H](CCC(=O)O)NC(=O)[C@H](CCCNC(=N)N)NC(=O)[C@H](C)NC(=O)[C@H](C)NC(=O)[C@H](CCC(N)=O)NC(=O)[C@H](CCCCNc1c(NCCCCCN(O)C(=O)CCC(=O)NCCCCCN(O)C(=O)CCC(=O)NCCCCCN(O)C(C)=O)c(=O)c1=O)NC(=O)[C@H](CCC(=O)O)NC(=O)[C@H](CC(C)C)NC(=O)[C@H](Cc1ccc(O)cc1)NC(=O)[C@H](CO)NC(=O)[C@H](CO)NC(=O)[C@H](CCCCNc1c(NCCCCCN(O)C(=O)CCC(=O)NCCCCCN(O)C(=O)CCC(=O)NCCCCCN(O)C(C)=O)c(=O)c1=O)NC(=O)[C@H](CC(=O)O)NC(=O)[C@H](CO)NC(=O)[C@@H](NC(=O)[C@H](Cc1ccccc1)NC(=O)[C@@H](NC(=O)CNC(=O)[C@H](CCC(=O)O)NC(=O)[C@H](C)NC(=O)CCc1cnc[nH]1)[C@@H](C)O)[C@@H](C)O)C(=O)N[C@@H](C)C(=O)N[C@@H](Cc1c[nH]c2ccccc12)C(=O)N[C@@H](CC(C)C)C(=O)N[C@H](C(=O)N[C@@H](CCCNC(=N)N)C(=O)NCC(=O)N[C@@H](CCCNC(=N)N)C(=O)N[C@@H](CCCCNC(=O)COCCOCCNC(=O)COCCOCCNC(=O)CC[C@H](NC(=O)CCCCCCCCCCCCCCCCC(=O)O)C(=O)O)C(=O)O)C(C)C — EC50 (GLP1R; cAMP reporter gene, agonist, CRE luciferase; BHK; without Zr, 0% HSA): 0.075 nM
O=c1[nH]sc2cc(F)ccc12 — efficacy (LDR; silenced CMV-GFP reporter derepression, qHTS): 29%
Cn1nccc1Nc1nccc(-c2ccn([C@H](CO)c3ccc(Cl)c(F)c3)c(=O)c2)n1 — PI-positive cells (HCT116; IncuCyte; concentration not given, 0 (unit not given)): 1.75 count and 1.92 count and 1.83 count
CC(=O)O[C@H]1CC[C@]2(C=O)[C@H]3CC[C@]4(C)[C@@H](C5=CC(=O)OC5)CC[C@]4(O)[C@@H]3CC[C@]2(O)C1 — MyBP-C level (MYBPC3 iPSC cardiomyocytes; plate-normalised; concentration not given, 24 h, hit retest): 9.1%
CN1CCN(c2cc(-c3ccncc3)c(-c3ccc4ccccc4c3)nn2)CC1 — activation (GALR2 (Homo sapiens, UniProt O43603); agonist, FLIPR; 12.5 µM): -1.8%
CC[C@H](C)[C@H](NC(=O)[C@H](Cc1ccccc1)NC(=O)[C@H](CCC(=O)O)NC(=O)[C@H](CCCNC(=N)N)NC(=O)[C@H](C)NC(=O)[C@H](C)NC(=O)[C@H](CCC(N)=O)NC(=O)[C@H](CCC(=O)O)NC(=O)[C@H](CCC(=O)O)NC(=O)[C@H](CC(C)C)NC(=O)[C@H](Cc1ccc(O)cc1)NC(=O)[C@H](CO)NC(=O)[C@H](CO)NC(=O)[C@@H](NC(=O)[C@H](CC(=O)O)NC(=O)[C@H](CO)NC(=O)[C@@H](NC(=O)[C@H](Cc1ccccc1)NC(=O)[C@@H](NC(=O)CNC(=O)[C@H](CCC(=O)O)NC(=O)[C@H](C)NC(=O)CCc1cnc[nH]1)[C@@H](C)O)[C@@H](C)O)C(C)C)C(=O)N[C@@H](C)C(=O)N[C@@H](Cc1c[nH]c2ccccc12)C(=O)N[C@@H](CC(C)C)C(=O)N[C@H](C(=O)N[C@@H](CCCCNc1c(NCCCCCN(O)C(=O)CCC(=O)NCCCCCN(O)C(=O)CCC(=O)NCCCCCN(O)C(C)=O)c(=O)c1=O)C(=O)NCC(=O)N[C@@H](CCCNC(=N)N)C(=O)N[C@@H](CCCCNC(=O)COCCOCCNC(=O)COCCOCCNC(=O)CC[C@H](NC(=O)CCCCCCCCCCCCCCCCC(=O)O)C(=O)O)C(=O)NCC(=O)NCC(=O)N[C@@H](CO)C(=O)N[C@@H](CCCCNc1c(NCCCCCN(O)C(=O)CCC(=O)NCCCCCN(O)C(=O)CCC(=O)NCCCCCN(O)C(C)=O)c(=O)c1=O)C(=O)O)C(C)C — EC50 (GLP1R; cAMP reporter gene, agonist, CRE luciferase; BHK; without Zr, 0% HSA): 0.027 nM
COc1c(CCC[P+](c2ccccc2)(c2ccccc2)c2ccccc2)cc2c(c1OC)OCO2.[I-] — GI50 (OVCAR-8; SRB): -5.58 log M
CC1(C)CN(CCCCC(=O)N[C@H](Cc2ccc(O)c(I)c2)C(=O)N[C@H](Cc2ccccc2)C(=O)N[C@H](CCCCNC(=O)CCCCCCC(=O)NCCCC[C@H](NC(=O)N[C@@H](CCC(=O)O)C(=O)O)C(=O)O)C(=O)O)CC[N]2CC(C)(C)[S][Tc]2(=[O])[S]1 (stereo partly shown) [technetium-99m labelled] — internalized activity (LNCaP; 25 nM, 1 h, 4 °C): 0.37 ± 0.2 %AD/mg protein

A few entries again:
O=c1c(O)c(-c2ccc(O)c(O)c2)oc2cc(O)cc(O)c12 — neurite process number (SH-SY5Y Aβ-GFP cells, TRKB shRNA; 5 µM): 3.3
O=C1CCP(=S)(c2ccccc2)CC1 — selectivity index (SW480; MTT; 72 h; reference: IC50 HaCaT over IC50 SW480): 2.8
CN1CCN(c2cc(-c3ccncc3)c(-c3ccc4ccccc4c3)nn2)CC1 — activation (GALR2 (Homo sapiens, UniProt O43603); agonist, FLIPR; 12.5 µM): -1.8%
